Experimental data from different studies.
Each line is one published result; not all experiments were run side by side. Numbers after ± are the reported error.

C=CC(=O)Nc1cc(Nc2nccc(-c3cn(C)c4ccccc34)n2)c(OC)cc1N(C)CCNC gave a recovery of 73.3% (storage stability; human plasma; 72 h, on ice, LLOQ level).
O=C1NC2(CC2)COc2ncc(F)cc2[C@H]2COCCN2c2ccn3ncc1c3n2: “relative population doubling” 27.6% (CHL cells; chromosomal aberration test; 20 µg/mL, 24 h, without S9 mix; relative to: solvent control).
The helicity of CC[C@H](C)[C@H](NC(=O)[C@H](CCCCN)NC(C)=O)C(=O)N[C@@H](C)C(=O)N[C@@H](C)C(=O)N[C@@H](CC(C)C)C(=O)N[C@@H](CCCCN)C(=O)N[C@@H](CCC(=O)O)C(=O)N[C@@H](CCCCN)C(=O)N[C@H](C(=O)N[C@@H](C)C(=O)N[C@@H](C)C(=O)N[C@@H](CC(C)C)C(=O)N[C@@H](CCCCN)C(=O)N[C@@H](CCC(=O)O)C(=O)N[C@@H](CCCCN)C(=O)N[C@H](C(=O)N[C@H]1CSCc2ccc(cc2)CSC[C@@H](C(=O)NCC(=O)N[C@@H](Cc2c[nH]c3ccccc23)C(N)=O)NC(=O)[C@H](CCCCN)NC(=O)[C@H](CC(C)C)NC(=O)[C@H](C)NC1=O)[C@@H](C)CC)[C@@H](C)CC is reported as 49% (circular dichroism at 222 nm; PBS; pH 7.4, 20 °C, single peptide 50 µM total).
O=C1C2CC3CC1CC(C(=O)N1CCN(c4ccc([N+](=O)[O-])c5ncccc45)CC1)(C3)C2: “revertant fold increase” 1.5 (Salmonella typhimurium; Ames test; TA1535; 0.78 µg/well, without S9; relative to: vehicle).
COc1cccc(OC)c1-c1cc(C(=O)NC2(C(=O)O)C3CC4CC(C3)CC2C4)nn1-c1ccc(C(=O)N(C)CCOCCN(C)C(=O)[C@H](CCCCNC(=O)[C@H](CC(C)C)NC(=O)C2OC2C(=O)O)NC(=O)CN2CCN(CC(=O)[O-])CCN(CC(=O)[O-])CCN(CC(=O)[O-])CC2)cc1C(C)C.[177Lu+3] (mixture of isomers) — result for “tumour-to-small intestine ratio”: 21.7 (mouse HT-29 xenograft; 72 h, biodistribution; relative to: tumour over small intestine).
CC(C)OCCOCc1ccc(OCC(O)CN(N=O)C(C)C)cc1 (stereo not drawn): “revertant fold increase” 1 fold (Salmonella typhimurium; Ames test; TA98; 158 µg/plate, 30 % hamster S9; relative to: solvent control).
The absorbed dose of O=C(O)CCCOc1ccc([18F])cc1-c1cc(-c2ccccc2C(F)(F)F)n(-c2ccccc2)n1 is reported as 10.5 µGy/MBq (OLINDA/EXM from mouse data, item: Urinary bladder wall; human adult).
For CNCc1ccc(-c2cc(=O)c3ccc4[nH]c(C(F)(F)F)nc4c3o2)cc1, the AUC was 84.3 ng·h/mL (ICR mice, brain; intravenous, 2 mg/kg).
O=C(Nc1cnccc1-c1ccc([18F])cc1)c1ccnc(NC(=O)C2CC2)c1 gave an SUV of 0.37 (FVB/NJ mice, both sexes, brain; intravenous, 50 min, median, P-gp inhibitor pretreatment, with: tariquidar 15 mg/kg iv).
COC1CN([C@H]2CC[C@H]([C@@]3(C)Oc4c(Cl)cc(C(=O)NCc5c(SC)cc(C)[nH]c5=O)c(C)c4O3)CC2)C1: “log2 fold change” 0.253 (RNA-seq, item: HS2ST1 mouse homolog; mouse, HT-1376 xenograft, whole blood; dose not given; relative to: vehicle).
The Lym% of Cc1ccc(CN2C(=O)/C(=N\c3ccc(Cl)cc3Br)c3ccccc32)cc1 is reported as 49.1 ± 6.16% (mouse, blood; 100 mg/kg).
With CCC(CC)n1c(Cc2ccco2)nc2cc(C(=O)N[C@@H](CC(=O)O)c3ccccc3)ccc21 the AUC(0-inf) was 4940 ng·h/mL (male Sprague-Dawley rat, plasma; intraperitoneal, 10 mg/kg).
With C=C(NC(=O)c1csc(-c2nc3c(cc2O)-c2nc(cs2)C(=O)NC(C(C)O)C(=O)NC(=C(C)OC)c2nc(cs2)C(=O)NC2c4nc(cs4)C(=O)NC(COC(=O)c4c5c6c(cccc6n4O)COC(=O)C(OC4CC(C)(O)C(N(C)C)C(C)O4)C2OC5)c2nc-3cs2)n1)C(N)=O (stereo not drawn) the Tmax was 4.8 min (Sprague-Dawley rat, plasma; intravenous, 2 mg/kg, single dose, infusion).
The logP of Cc1cc(NC(=O)c2ccc(Br)cc2)n[nH]1 is reported as 2.7 (octanol/buffer; pH 11).
Cc1ncsc1-c1ccc(C(C)NC(=O)C2CC(O)CN2C(=O)C(NC(=O)CCCCCCCCCCN2CCCC(Nc3ncc(Cl)c(Nc4ccccc4S(=O)(=O)C(C)C)n3)C2)C(C)(C)C)cc1 (stereo not drawn): “log2 fold change” -1.65 (22Rv1; RNA-seq, item: ZCCHC2 mRNA; concentration not given; relative to: DMSO).
For C=C[C@]1(C)C[C@@H](OC(=O)CSc2ccc(NC(=O)c3ccco3)cc2)[C@]2(C)[C@H](C)CC[C@]3(CCC(=O)[C@H]32)[C@@H](C)[C@@H]1O, the V1/F was 6.34 L/kg (chicken, Mycoplasmoides gallisepticum infected, plasma; intramuscular, 80 mg/kg).
CNS(=O)(=O)Nc1nccc(Cc2c(C)c3ccc(Oc4ncccc4F)cc3oc2=O)c1F has an IC50 of 10.4 nM (OVK18; cell viability; 7 days).
The tracer uptake of CN([O-])C(=O)CN1CCNCCN(CC(=O)N(C)[O-])CC1.[89Zr+4] is reported as 0.04 %ID/g (mouse, muscle; intravenous, 24 h).

Repeated from above:
For CNCc1ccc(-c2cc(=O)c3ccc4[nH]c(C(F)(F)F)nc4c3o2)cc1, the AUC was 84.3 ng·h/mL (ICR mice, brain; intravenous, 2 mg/kg).
The Lym% of Cc1ccc(CN2C(=O)/C(=N\c3ccc(Cl)cc3Br)c3ccccc32)cc1 is reported as 49.1 ± 6.16% (mouse, blood; 100 mg/kg).
C=CC(=O)Nc1cc(Nc2nccc(-c3cn(C)c4ccccc34)n2)c(OC)cc1N(C)CCNC gave a recovery of 73.3% (storage stability; human plasma; 72 h, on ice, LLOQ level).
